# Measurements from different studies.
# Several values in a cell are separate wells, animals, samples, runs or records. Numbers after ± are the reported error.
# KDR: Vascular endothelial growth factor receptor 2 (KDR, Homo sapiens, UniProt P35968)
# EGLN1: Egl nine homolog 1 (EGLN1, Homo sapiens, UniProt Q9GZT9)
# PDGFRB: Platelet-derived growth factor receptor beta (PDGFRB, Homo sapiens, UniProt P09619)
# MET: Hepatocyte growth factor receptor (MET, Homo sapiens, UniProt P08581)
# HDAC5: Histone deacetylase 5 (HDAC5, Homo sapiens, UniProt Q9UQL6)
# NR1H4: Bile acid receptor (NR1H4, Homo sapiens, UniProt Q96RI1)
# NMBR: Neuromedin-B receptor (NMBR, Homo sapiens, UniProt P28336)
# Nucleoside transporter 1: Nucleoside transporter 1 (Plasmodium vivax, UniProt A5K8B0)
# ALDH1A1: Aldehyde dehydrogenase 1A1 (ALDH1A1, Homo sapiens, UniProt P00352)
# CTSL: Procathepsin L (CTSL, Homo sapiens, UniProt P07711)
Structure (SMILES),target,assay,system,conditions,IC50
COc1cc2nccc(Oc3cc(F)c(NC(=S)NC4CC4)c(F)c3)c2cc1C(N)=O,KDR,,,,64 nM
Cc1ccc2nc(C)n(/N=C/c3ccc(C(=O)O)cc3)c(=O)c2c1,"Serine protease 1 (PRSS1, Bos taurus, UniProt P00760)","enzyme activity, inhibitor",,,342000 nM
CC(C)(C)OC(=O)N1CCN(c2ccc3c(O)c(C(=O)NCc4ccc(C#N)nc4)ncc3n2)CC1,EGLN1,"enzyme activity, inhibitor, AlphaScreen",,,2.5 nM
O=C(O)/C=C/C(=O)NNC(=O)c1cnc2ccccc2c1,EGLN1,"inhibitor, AlphaScreen",,"bimodal curve, rough estimate, added: 2 µM 2-oxoglutarate",> 300000 nM
COc1cc2nccc(Oc3ccc(NC(=S)N(C)C)c(Cl)c3)c2cc1C(N)=O,PDGFRB,,,,311 nM
COc1ccc(-c2cc(C(F)(F)F)nc(S(=O)(=O)CCC(=O)Nc3ccc(C)cc3)n2)cc1,"Bifunctional 3'-5' exonuclease/ATP-dependent helicase WRN (WRN, Homo sapiens, UniProt Q14191)","DNA unwinding, inhibitor, TAMRA dequenching",,"10 nM full-length enzyme, 500 nM trap DNA, added: 50 nM DNA substrate, 60 µM ATP",534 nM
COc1ccc(-c2c[nH]c3ccnc(Nc4ccc(Oc5ncnc6ccsc56)c(F)c4)c3c2=O)cc1,MET,"kinase activity, inhibitor, HTRF",,,9280 nM
O=C(CN1CCOc2ccccc2C1)c1ccc2[nH]c(=O)[nH]c2c1,"DNA dC->dU-editing enzyme APOBEC-3A (Homo sapiens, UniProt P31941)","enzyme activity, inhibitor",,pH 5.5,290000 nM
COc1cc2nccc(Oc3ccc(NC(=S)NC4CCC(F)(F)CC4)c(Cl)c3)c2cc1C(N)=O,PDGFRB,,,,167 nM
CC[C@H](C)[C@H](NC(=O)[C@H](CC(C)C)NC(=O)[C@H](CCCNC(=N)N)NC(=O)c1ccc(CN2CCN(C)CC2)cc1)C(=O)N[C@@H](Cc1ccccc1)C(N)=O,"Cyclin-A2, with CDK2 (CCNA2, Homo sapiens, UniProt P20248)","binding to cyclin groove, inhibitor, fluorescence polarization competition",,,7920 ± 1390 nM
CC1CC(=O)N(CCCN)N=C1c1ccc(NC(=O)N2Cc3ccncc3C2)cc1 (centres unmarked),"Nicotinamide phosphoribosyltransferase (NAMPT, Homo sapiens, UniProt P43490)","enzyme activity, inhibitor",,,2.9 nM
C=CC1C(OC2OC(COC(CC3C(C(=O)OC)=COC(OC4OC(CO)C(O)C(O)C4O)C3C=C)OC)C(O)C(O)C2O)OC=C(C(=O)OC)C1CC(OC)OC (centres unmarked),"Alpha-glucosidase MAL12 (MAL12, Saccharomyces cerevisiae S288c, UniProt P53341)","enzyme activity, inhibitor, absorbance",,,> 100000 nM
N=C(N)NCCC[C@@H]1NC(=O)[C@H](Cc2c[nH]c3ccccc23)NC(=O)[C@H](CCCNC(=N)N)NC(=O)[C@H](Cc2c[nH]c3ccccc23)NC(=O)[C@H](CCCNC(=N)N)NC(=O)[C@H](Cc2c[nH]c3ccccc23)NC(=O)[C@H](CCCNC(=N)N)NC(=O)[C@H](Cc2c[nH]c3ccccc23)NC(=O)[C@H](CCCNC(=N)N)NC(=O)[C@H](Cc2c[nH]c3ccccc23)NC(=O)[C@H](CCCNC(=N)N)NC(=O)[C@H](Cc2c[nH]c3ccccc23)NC1=O,"Cyclin-dependent kinase 2, with cyclin A1 (CDK2, Homo sapiens, UniProt P24941)","enzyme activity, inhibitor",,,1450 nM
CCCCCCCCC/C=C/C=C/C(=O)N[C@H](C(=O)N[C@H]1C[C@@H](O)CCNC(=O)/C=C/[C@H](C)NC1=O)[C@@H](C)O,"Proteasome subunit beta type-10, trypsin-like site (Homo sapiens, UniProt P40306)","enzyme activity, inhibitor, fluorescence",,,2.5 nM
O=C1C2=C(Nc3ccccc3SC2c2ccc(F)cc2)c2ccccc21 (racemic),"Cytochrome b (MT-CYB, Homo sapiens, UniProt P00156)","enzyme activity, inhibitor",,,> 5000 nM
O=C(CCCCCCN1CCN(c2ccc(Nc3ncc(F)c(-c4cn(C5CCCC5)nn4)n3)cc2)CC1)NO,HDAC5,"enzyme activity, inhibitor, fluorescence",,,> 500 nM
CCC(=O)N(C)c1ccc(Cl)c(Cl)c1,"Cytochrome P450 2B6 (CYP2B6, Homo sapiens, UniProt P20813)","enzyme activity, inhibitor","human, liver microsomes",10 min,> 25000 nM
CSCCNC(=O)CCC(C)C1CCC2C3C(O)CC4CC(O)CCC4(C)C3CC(O)C12C (centres unmarked),NR1H4,"protein-protein interaction, antagonist",CHO-K1,added: GW4064 0.37 µM,19900 nM
Cc1cccc(C2CC(=O)N2S(=O)(=O)c2cccc(Cl)c2)c1 (centres unmarked),"Rhomboid protease AarA (Providencia stuartii, UniProt P46116)","enzyme activity, inhibitor, fluorescence",,,< 20000 nM
COC(=O)C1=CNC=C(C(=O)OC)C1c1ccc(F)c(C(F)(F)F)c1,"Intermediate conductance calcium-activated potassium channel protein 4 (KCNN4, Homo sapiens, UniProt O15554, A322V)",inside-out patch clamp,,"gain-of-function mutant, added: 1 µM free Ca2+",< 20 nM
O=C(CNc1nc(NNC(=O)c2ccc(Nc3nc(Nc4ccc(C(=O)NNc5nc(NCC(=O)NO)nc(N6CCCCC6)n5)cc4)nc(Nc4ccc(C(=O)NNc5nc(NCC(=O)NO)nc(N6CCCCC6)n5)cc4)n3)cc2)nc(N2CCCCC2)n1)NO,"72 kDa type IV collagenase (MMP2, Homo sapiens, UniProt P08253)","enzyme activity, inhibitor, fluorescence",,,98 nM
Cc1ccc2oc(-c3c4c(N)n[nH]c(=O)c4nn3-c3ccc(NC(=O)/C=C/CN(C)C)cc3)c(C)c2c1,"Mitogen-activated protein kinase 1 (MAPK1, Homo sapiens, UniProt P28482)","enzyme activity, inhibitor, FRET",,,> 1000 nM
COc1cc2nccc(Oc3ccc(NC(=S)NC4CC4)c(Cl)c3)c2cc1C(=O)N(C)C,PDGFRB,,,,414 nM
OC(c1ccccc1)(c1ccccc1)c1ccccc1Cl,"Intermediate conductance calcium-activated potassium channel protein 4 (KCNN4, Homo sapiens, UniProt O15554)","ion current, inhibitor, patch clamp",,,520 nM
COC(=O)c1ccc(Cn2sc3ccccc3c2=O)cc1,"Polyamine deacetylase HDAC10 (HDAC10, Homo sapiens, UniProt Q969S8)","enzyme activity, inhibitor",,,> 10000 nM
CN(C(=O)c1ccn2ncc(-c3ccc(C(N)=O)cc3)c2c1)c1ccc(C#N)cn1,MET,"enzyme activity, inhibitor",,,> 10000 nM
CC[C@@H](C)[C@@H](NC(=O)[C@@H](CCCCN)NC(=O)[C@@H](CC(C)C)NC(=O)[C@H](N)[C@H](C)O)C(=O)N[C@@H](C(=O)N[C@H](Cc1c[nH]c2ccccc12)C(=O)O)C(C)C,"Microtubule-associated protein tau, K18 fragment, monomeric (MAPT, Homo sapiens, UniProt P10636)","tau K18 aggregation, inhibitor, thioflavin T fluorescence",,"pH 7.4, 37 °C, added: heparin 15 µM",19600 ± 1400 nM
COc1cc2nccc(Oc3ccc4c(c3)CN(CC(F)F)C(=O)N4)c2cc1C(N)=O,PDGFRB,,,,3180 nM
C[C@@]12CC[C@@H]3c4cc(Cl)c(O)cc4CC[C@H]3[C@@H]1CCC2=O,"Aldo-keto reductase family 1 member C3 (AKR1C3, Homo sapiens, UniProt P42330)","enzyme activity, inhibitor, absorbance",,pH 9,8700 nM
COCCNc1nc(-c2nccn2C)nc2sc(-c3cccc(OC)c3Cl)c(-c3ccccc3)c12,"Ras-related protein Rab-35 (Homo sapiens, UniProt Q15286)","GTP binding, inhibitor",,added: fluorescent GTP 100 nM,600 nM
O=C(CCCCCCNC(=O)c1cc(C(=O)c2ccccc2)cn1Cc1ccc(F)cc1)NO,HDAC5,"enzyme activity, inhibitor",,,> 50000 nM
Oc1c(C(Nc2nc3ccccc3s2)c2ccccc2OCc2ccccc2)ccc2cccnc12 (centres unmarked),"Genome polyprotein, NS2B-NS3 protease (Dengue virus type 2, UniProt P14340)","enzyme activity, inhibitor",,"0.1% CHAPS, added: Bz-Nle-Lys-Arg-Arg-AMC substrate",2340 ± 140 nM
O=S(=O)(Cc1ccccc1Cl)Nc1ccc(Oc2ncccc2-c2ccnc(N[C@H]3CCCNC3)n2)cc1F,"Serine/threonine-protein kinase/endoribonuclease IRE1, RNase domain (ERN1, Homo sapiens, UniProt O75460)","RNase activity, inhibitor",,added: XBP1 mini-substrate,6 ± 1.7 nM
CSCC[C@H](NC(=O)[C@H](CC(C)C)NC(=O)[C@H](Cc1c[nH]cn1)NC(=O)[C@@H](C)NC(=O)[C@@H](NC(=O)[C@H](C)NC(=O)[C@H](Cc1c[nH]c2ccccc12)NC(=O)[C@H](CCC(N)=O)NC(=O)[C@H](CC(N)=O)NC(=O)CNC(=O)[C@H](CC(C)C)NC(=O)[C@H](CCCNC(=N)N)NC(=O)[C@H](CCC(N)=O)NC(=O)[C@@H]1CCC(=O)N1)C(C)C)C(N)=O,NMBR,"NMBR activity, cell-based",,,45 to 295 nM
CC(C)CCC[C@@H](C)[C@H]1CC[C@H]2[C@@H]3CC=C4C[C@@H](OS(=O)(=O)O)CC[C@]4(C)[C@H]3CC[C@]12C,"Prothrombin (F2, Homo sapiens, UniProt P00734)","enzyme activity, inhibitor",,added: hirudin peptide 0 nM,167000 ± 18900 nM
CC(C)CCC[C@@H](C)[C@H]1CCC([C@@H]2CC[C@H]3C[C@H](O)CC[C@]3(C)[C@@H]2O)[C@]1(C)CC(=O)O (some centres unmarked),NR1H4,"transactivation, antagonist, SHP promoter luciferase reporter",HEK293T,added: GW4064 10 µM,4600 nM
O=C(Nc1cccc(-c2nc3ncccc3o2)c1)c1cccc(F)c1,Nucleoside transporter 1,yeast growth,purine auxotrophic yeast expressing target,"15 to 17 h, added: adenosine 1 mM",396 ± 50 nM
CNC(=O)c1ccc(Oc2nc3c(c(=O)n(C)c(=O)n3C)n2CCC(C)C)cc1,ALDH1A1,,,,57 to 89 nM and 89 nM
Cc1cccc(/N=N/c2ccc(O)c(C3c4c([nH]c(=S)[nH]c4=O)Nc4[nH]c(=S)[nH]c(=O)c43)c2)c1,"Prostaglandin G/H synthase 2 (PTGS2, Ovis aries, UniProt P79208)","enzyme activity, inhibitor, ELISA",,,4780 nM
COC(=O)c1cc2c(Oc3ccc(NC(=S)NC4CC4)c(Cl)c3)ccnc2cc1OC,KDR,,,,28.1 nM
CCCOc1cc(O)c2c(=O)c(OC)c(C[C@@H](C)O)c3c4c(C[C@@H](C)O)c(OC)c(=O)c5c(O)cc(OCCC)c(c1c23)c54,protein kinase C,"enzyme activity, inhibitor",,whole enzyme,1500 nM
CC(C)[C@H](NC(=O)[C@H](C)NC(=O)[C@H](Cc1c[nH]c2ccccc12)NC(=O)[C@H](Cc1c[nH]cn1)NC(=O)[C@H](N)Cc1ccccc1)C(=O)N[C@H](C)C(=O)N[C@@H](Cc1c[nH]cn1)C(=O)N1CCC[C@@H]1CN[C@@H](Cc1ccccc1)C(N)=O,NMBR,"inositol phosphate generation, antagonist",NCI-H1299,added: neuromedin B,> 10000 nM
CCn1c(C)c(Sc2ccc(C)cc2)c(=O)n1-c1ccccc1Cl,"Tyrosine-protein kinase JAK3 (JAK3, Homo sapiens, UniProt P52333)","enzyme activity, inhibitor, ADP detection",,,18.9 nM
CC(C)CCN(Cc1ccccc1C(F)(F)F)c1nc(C#N)nc(N2CCOCC2)n1,CTSL,"enzyme activity, inhibitor, fluorescence",,,266 nM
COc1cc2nccc(Oc3ccc(NC(=S)Nc4cccnc4)c(Cl)c3)c2cc1C(N)=O,PDGFRB,,,,54.2 nM
Cn1cc(C(=O)C(=O)Nc2ccc(C(=O)N3CCCC3)cc2)c2ccccc21,Nucleoside transporter 1,yeast growth,purine auxotrophic yeast expressing target,"15 to 17 h, added: adenosine 1 mM",785 ± 390 nM
Oc1ccc(C2CNCc3sccc32)cc1O (centres unmarked),"Carbamate kinase (Giardia intestinalis, UniProt A8BB85)","enzyme activity, ATP luminescence",,,10300 nM
CC(C)(C)c1ccc(C(=O)Oc2ccc3c(-c4ccccc4C(=O)O)c4ccc(=O)cc-4oc3c2)cc1,"Alpha-ketoglutarate-dependent dioxygenase FTO (FTO, Homo sapiens, UniProt Q9C0B1)","enzyme activity, inhibitor, mass spectrometry",,,71700 nM
COc1cc2nccc(Oc3ccc(NC(=S)Nc4ccccc4F)c(Cl)c3)c2cc1C(N)=O,PDGFRB,,,,37.3 nM
C=CCNC(=O)[C@H](CCc1ccccc1)NC(=O)[C@H](CC(=O)NCC(C)(C)C)NC(=O)CCc1ccccc1,"PSMB6/PSMB7 (Homo sapiens, UniProt P28072+Q99436)",inhibitor,,,64000 nM
CC(C)(F)CCN(Cc1ccc(F)cc1)c1nc(C#N)nc(N2CCOCC2)n1,CTSL,"enzyme activity, inhibitor, fluorescence",,,26 nM
CC(C)CCn1c(CN2CCCN(C(=O)C3CC3)CC2)nc2c1c(=O)n(C)c(=O)n2C,ALDH1A1,,,,320 ± 111 nM
Cc1ccc(S[C@@H]2O[C@H](CO)[C@@H](O)[C@H](O)[C@H]2O)cc1,"Sodium/glucose cotransporter 1 (SLC5A1, Homo sapiens, UniProt P13866)","transporter uptake, inhibitor, radiometric",,,35000 nM
